Experimental data pooled from the literature.
Lines come from different studies, so protocols differ. ± gives the spread as reported.
Organism: Plasmodium falciparum

Cn1cc(-c2ccc3ccn(CC(=O)Nc4ccccc4Cl)c3c2)cn1
EC50 fold shift (Dd2 PfATP4 D425E; 72 h; reference: mutant over parental): 2 fold

CCN(CC)CCCC(C)Nc1ccnc2cc(Cl)ccc12 (centres unmarked)
resistance index (growth, [3H]-hypoxanthine uptake; Dd2; 48 h; reference: Dd2 IC50 over 3D7 IC50): 2.9

N=C(N)c1ccc(OCCCCCOc2ccc(C(=N)N)cc2)cc1
IC50 (3D7): 100 nM

COc1ccccc1C1CN(CCNC(=O)c2nc(C)c[nH]2)Cc2ccccc2O1 (centres unmarked)
EC50 (parasite growth, SYBR Green; 3D7 DHODH E182D; 72 h): > 12500 nM

CC1(C)N=C(N)N=C(N)N1c1ccc(Cl)cc1
IC50 (growth, [3H]-hypoxanthine uptake; FCR3; 96 h): 1260 ± 620 nM

C[C@H]1[C@@H](O)O[C@@H]2O[C@@]3(C)CC[C@H]4[C@H](C)CC[C@@H]1[C@@]24OO3
parasite survival (ring-stage survival; 6591; 700 nM, 6 h): 0.66%

COCc1ccccc1C(=O)NCCOc1cc(C)cc(C)c1
EC50 (parasite growth): 53.5 ± 7.9 nM

c1cc([C@H]2CC[C@]3(CC2)OO[C@]2(O3)C3CC4CC(C3)CC2C4)ccc1OCCN1CCOCC1
lag phase duration (human patients, malaria; oral, 800 mg): 6 h

Fc1ccc([C@@H]2CCNC[C@H]2COc2ccc3c(c2)OCO3)cc1
IC50 (3D7): 6310 nM

CC(C)C[C@H](NC(=O)[C@H](Cc1c[nH]c2ccccc12)NC(=O)CN1CCOCC1)C(=O)N[C@H](/C=C/S(C)(=O)=O)Cc1c[nH]c2ccccc12
EC50 (Dd2 β3 R190S CRISPR-edited; concentration not given): 26 ± 1.4 nM

CC(C)(C)c1cc(C=C(C#N)C#N)cc(C(C)(C)C)c1O
IC50 (3D7): 520 nM

C[C@H]1[C@@H](O)O[C@@H]2O[C@@]3(C)CC[C@H]4[C@H](C)CC[C@@H]1[C@@]24OO3
EC50 (parasite growth): 2.67 ± 0.44 nM

OC(CN1CCC(Cc2ccc(F)cc2)CC1)c1ccc(Cl)cc1 (centres unmarked)
IC50 (W2): 251 nM

CCCCOc1ccccc1C(=O)NCc1csc(-c2ccccc2)n1
EC50 ratio (parasite growth, SYBR Green; 72 h; reference: 3D7-E182D over 3D7): 1.4

CCc1nnc(-c2ccc3ccn(CC(=O)Nc4cc(OC)c(OC)c(OC)c4)c3c2)o1
EC50 fold shift (7G8; reference: 7G8 over 3D7): 2 fold

COC(=O)[C@H]1[C@H]2C[C@@H]3c4[nH]c5cc(OC)ccc5c4CCN3C[C@H]2C[C@@H](OC(=O)c2cc(OC)c(OC)c(OC)c2)[C@@H]1OC
IC50 (HB3): 1260 nM

COC(=O)C1=CNC=C(C(=O)OC)C1c1ccc(Cl)c([N+](=O)[O-])c1
EC50 ratio (parasite growth, SYBR Green; 72 h; reference: 3D7-E182D over 3D7): 1.8

Repeated from above:
CC1(C)N=C(N)N=C(N)N1c1ccc(Cl)cc1
IC50 (growth, [3H]-hypoxanthine uptake; FCR3; 96 h): 1260 ± 620 nM
